Experimental data collected from several papers.
± marks the error that the study gave.
Technique: steady-state kinetics
B1: UGT1A9 (Homo sapiens, UniProt O60656); chain GKLLVVPMDGSHWFTMRSVVEKLILRGHEVVVVMPEVSWQLGRSLNCTVKTYSTSYTLEDLDREFKAFAHAQWKAQVRSIYSLLMGSYNDIFDLFFSNCRSLFKDKKLVEYLKESSFDAVFLDPFDNCGLIVAKYFSLPSVVFARGILCHYLEEGAQCPAPLSYVPRILLGFSDAMTFKERVRNHIMHLEEHLLCHRFFKNALEIASEILQTPVTEYDLYSHTSIWLLRTDFVLDYPKPVMPNMIFIGGINCHQGKPLPMEFEAYINASGEHGIVVFSLGSMVSEIPEKKAMAIADALGKIPQTVLWRYTGTRPSNLANNTILVKWLPQNDLLGHPMTRAFITHAGSHGVYESICNGVPMVMMPLFGDQMDNAKRMETKGAGVTLNVLEMTSEDLENALKAVINDKSYKENIMRLSSLHKDRPVEPLDLAVFWVEFVMRHKGAPHLRPAAHDLTWYQYHSLDVIGFLLAVVLTVAFITFKCCAYGYRKCLGKKGRVKKAHKSKTH
B2: HCT R356D (Coleus scutellarioides, UniProt E8ZAP2); chain MKIHVRDSTLVRPSAATPAVSLWNSNVDLVVPNFHTPSVYFYRPSGADNFFDTAVMKAALGRALVSFYPMAGRLKRDEDGRVEIDCNAEGVLFVEAESDGTVDDYGDFAPSLELRRLIPAVDYSQGISAYPLLVLQVTFFKCGGVSLGVGMQHHAADGFSGLHFINTWSDMARGLDITLPPFIDRTLLSARDPPQPQFKHVEYQPPPAMKTYEPAETVVSIFKLTKDQLTTLKAKSKEDGNTTTYSSYEMLSGHVWRCTCLARGLPEEQETKLYIATDGRSRLQPQLPPGYFGNVIFTATPLAVAGDLGSKPVWYAASKIHDALARMDNDYLRSALDFLELQPDLKALVRGAHTFDCPNLGITSWVRLPIHDADFGWGRPIFMGPGGIAYEGLSFVLPSPTNDGSLSVAISLQAEHMKLFEKLLYQI
B3: putA D779Y (Bradyrhizobium diazoefficiens, UniProt Q89E26); chain MPNIPPPFTAPYAPDDAEIAARLLPASHLSPPQEARIHRTATRLIEAIRKRDDRLGGVEDMLREFALSTKEGLALMVLAEALLRVPDARTADQFIEDKLGEGDFIHHETKSTAFLVNASAWALGLSARVIQPGETPDGTIGRLVKRLGAPAVRTATRQAMRLMGNHFVLGETIEQALERGKPRSGQKTRYSFDMLGEGARTAADARRYFDAYASAIETIGKAAGNHALPDRPGISVKLSALHPRFEAISRARVMVELVPQLLDLAQRAKAHDLNFTVDAEEADRLELSLDVIAATLADPSLKGWDGFGLAIQAYQKRASAVIDYVDALARAHDRKLMVRLVKGAYWDTEIKRAQERGLDGYPVFTRKAMTDLNYVACASKLLALRPRIFPQFATHNALTVATVLEMAEGSSGFEFQRLHGMGEALYEQLAKDHADIAYRTYAPVGSHRDLLAYLVRRLLENGANSSFVAQAADYRVPVPALLQRPADAIVRPQAAAHPRIPLPCDLFAPERRNSRGVEFGARTALDQLLTDVKAETGDLKPIADATPDQAHAAVAAARAGFAGWSRTPAGIRAAALEQAAHLLESRSAHFIALLQREGGKTLDDALSELREAADFCRYYAAQGRKLFGSETAMPGPTGESNALTMRGRGVFVAISPWNFPLAIFLGQVTAALMAGNSVVAKPAEQTPRIAREAVALLHEAGIPKSALYLVTGDGRIGAALTAHPDIAGVVFTGSTEVARSINRALAAKDGPIVPLIAETGGINAMIADATALPEQVADYVVTSAFRSAGQRCSALRLLFVQEDVADRMIEMVAGAARELKIGDPSDVATHVGPVIDVEAKQRLDAHIARMKTEARLHFAGPAPEGCFVAPHIFELTEAGQLTEEVFGPILHVVRYRPENLERVLRAIERTGYGLTLGVHSRIDDSIEAIIDRVQVGNIYVNRNMIGAVVGVQPFGGNGLSGTGPKAGGPHYLARFATEQTVTINTAAAGGNAALLAGEE
B4: enzyme (Vitis vinifera, UniProt F6HSW4); chain MAVDSGLSSPLGPPACEKDAKALQFIEEMTRNPDQVQEKILAEILSQNGETEYLQRFKLAGATDRDTFKSKVPVVTYEDLQPDIQRIANGDRSPILSSHPISEFLTSSGTSAGERKLMPTIHEEWDRRQKLYSLLMPVMNLYVPGLDKGKGLYFLFVKSETKTPSGLVARPVLTGYYRSEHFKKRPYDPYNVYTSPDEAILCVDSFQSMYAQMLCGLLMHKEVLRVGAVFASGLLRAIRFLQVHWQQLAHDISTGILNPKITDPSVREGLAGILKPSQELADFIIQECSGGNWERIITRIWPNTKYLDVIVTGAMAQYIPTLDYFSGGIPLACTMYASSECYFGLNLKPMSKPSEVSYTIMPNMGYFEFLPHDPSAPPLSRDSPPRLVDLADVEVGKEYELVITTYAGLCRYRVGDILQVTGFHNSAPQFQFIRRKNVLLSIDSDKTDEAELQKAVENASLLLREFNTSVVEYTSFADTKTIPGHYVIYWELLVKDPSNSPTDTVLKQCCLAMEESLNTVYRQGRVADNSIGPLEIRVVKSGTFEELMDYAISRGASINQYKVPRCVNFTPIMELLDSRVLSTYFSPAAPHWTPERRRTD
B5: MMP2 (Homo sapiens, UniProt P08253); chain YNFFPRKPKWDKNQITYRIIGYTPDLDPETVDDAFARAFQVWSDVTPLRFSRIHDGEADIMINFGRWEHGDGYPFDGKDGLLAHAFAPGTGVGGDSHFDDDELWTLGEGQVVRVKYGNADGEYCKFPFLFNGKEYNSCTDTGRSDGFLWCSTTYNFEKDGKYGFCPHEALFTMGGNAEGQPCKFPFRFQGTSYDSCTTEGRTDGYRWCGTTEDYDRDKKYGFCPETAMSTVGGNSEGAPCVFPFTFLGNKYESCTSAGRSDGKMWCATTANYDDDRKWGFCPDQGYSLFLVAAHEFGHAMGLEHSQDPGALMAPIYTYTKNFRLSQDDIKGIQELYGASPDIDLGTGPTPTLGPVTPEICKQDIVFDGIAQIRGEIFFFKDRFIWRTVTPRDKPMGPLLVATFWPELPEKIDAVYEAPQEEKAVFFAGNEYWIYSASTLERGYPKPLTSLGLPPDVQRVDAAFNWSKNKKTYIFAGDKFWRYNEVKKKMDPGFPKLIADAWNAIPDNLDAVVDLQGGGHSYFFKGAYYLKLENQSLKSVKFGSIKSDWLGC
B6: protein (Allochromatium vinosum, UniProt P45370); chain MFPIDIRPDKLTQEMLDYSRKLGQGMENLLNAEAIDTGVSPKQAVYSEDKLVLYRYDRPEGAPEAQPVPLLIVYALVNRPYMTDIQEDRSTIKGLLATGQDVYLIDWGYPDQADRALTLDDYINGYIDRCVDYLREAHGVDKVNLLGICQGGAFSLMYSALHPDKVRNLVTMVTPVDFKTPDNLLSAWVQNVDIDLAVDTMGNIPGELLNWTFLSLKPFSLTGQKYVNMVDLLDDPDKVKNFLRMEKWIFDSPDQAGETFRQFIKDFYQNNGFLNGGVVLGGQEVDLKDITCPVLNIFALQDHLVPPDASRALKGLTSSPDYTELAFPGGHIGIYVSGKAQKEVTPAIGKWLNER
B7: alanine racemase H166A (Geobacillus stearothermophilus, UniProt P10724); chain MNDFHRDTWAEVDLDAIYDNVENLRRLLPDDTHIMAVVKANAYGHGDVQVARTALEAGASRLAVAFLDEALALREKGIEAPILVLGASRPADAALAAQQRIALTVFRSDWLEEASALYSGPFPIHFHLKMDTGMGRLGVKDEEETKRIVALIERHPHFVLEGLYTAFATADEVNTDYFSYQYTRFLHMLEWLPSRPPLVHCANSAASLRFPDRTFNMVRFGIAMYGLAPSPGIKPLLPYPLKEAFSLHSRLVHVKKLQPGEKVSYGATYTAQTEEWIGTIPIGYADGWLRRLQHFHVLVDGQKAPIVGRICMDQCMIRLPGPLPVGTKVTLIGRQGDEVISIDDVARHLETINYEVPCTISYRVPRIFFRHKRIMEVRNAIGRGESSA
B8: SUOX R529M/Y400N (Homo sapiens, UniProt P51687); chain ESTHIYTKEEVSSHTSPETGIWVTLGSEVFDVTEFVDLHPGGPSKLMLAAGGPLEPFWALYAVHNQSHVRELLAQYKIGELNPEDKVAPTVETSDPYADDPVRHPALKVNSQRPFNAEPPPELLTENYITPNPIFFTRNHLPVPNLDPDTYRLHVVGAPGGQSLSLSLDDLHNFPRYEITVTLQCAGNRRSEMTQVKEVKGLEWRTGAISTARWAGARLCDVLAQAGHQLCETEAHVCFEGLDSDPTGTAYGASIPLARAMDPEAEVLLAYEMNGQPLPRDHGFPVRVVVPGVVGARHVKWLGRVSVQPEESYSHWQRRDNKGFSPSVDWETVDFDSAPSIQELPVQSAITEPRDGETVESGEVTIKGYAWSGGGRAVIRVDVSLDGGLTWQVAKLDGEEQRPRKAWAWRLWQLKAPVPAGQKELNIVCKAVDDGYNVQPDTVAPIWNLMGVLSNAWHRVHVYVSP
B9: putA G1011P (Rhodobacter capsulatus, UniProt D5AN87); chain MTDLSALGPKAKFAPEAEVLQALVAQAALPQPQLDRIAARGADLVARIRAEAKPSLMEHFLAQYGLSTREGVALMCLAEAMLRVPDTATIDALIEDKIAPSDWGKHLGTAASSLVNASTWALMLTGKVLDDGAGGIAGTLRGAMRRLGEPVIRAAVGQAMREMGRQFVLGETIEKALERAEKREAEGYTFSYDMLGEAALTAADAERYRLAYAQAITAIGKAATRGSIAANPGISIKLSALHPRYEVAQEARVMAELVPVVRDLARAAARAGIALHIDAEEQDRLALSLRVMAAVIADPETAGWEGFGAVVQAYGKRAGAAIDALAAMARAAGRRINIRLVKGAYWDAEMKRAQVEGHPGFPLFTSKTGTDVAYICLAAKLFGLNDCIYPQFATHNAHTVAAVLEMAAGRPFEFQRLHGMGARLHDIVLRETGGRCRIYAPVGAHRDLLAYLVRRLLENGANSSFVNQIVNESVPPAEVAACPFAALPTARAPRGLLAPADLFGAGRVNAQGFDLSDPEVLARIEAARDVTLPDAAPIVAGPVSGTLRPVRNPATGAVVAQVTEADAATVALALDAAQVWSAPAATRAAVLCRAADLYEENFGPIFAALAQEAGKTLGDAVSELREAVDFLRYYAAEGAADTRPPRGAVVAISPWNFPLAIFTGQVAAALMAGNAVLAKPAEQTPIIAALAVRLLHQAGVPETALQLLPGDGPTVGAALTRDPRVAGVVFTGSTETAQIIARAMAAHLAPGTPLIAETGGLNAMVVDSTALPEQAVRDVVASAFRSAGQRCSALRCLYVQDDIAPHLIGMLKGAMEELVSGDPARLSTDVGPVIDAEAKAGIETYLAANKARILHRSTAPEGGHFVAPALLQVGGIADLEREIFGPVLHLATFAAEDLPAVIAAINARGYGLTFGLHSRIDARVETVAETIRAGNIYVNRNQIGAVVGSQPFGGEGLSGTGPKAGGPLYLNRFYAPEPVVAVGGWTEAATPILPEARETQLDEIFLPGPTPELNRLTRHQRGPILCLGPGAEAASAQAAAVVALGGQAVQASGAVSPKALETLTPLAGVLWWGAAEMGRAYAQALAVRPGPLVPLITAKPDLAHVAHERHLCVDTTAAGGNAALLAG
Sequence of UniProt Q7L266 (whole entry, looked up): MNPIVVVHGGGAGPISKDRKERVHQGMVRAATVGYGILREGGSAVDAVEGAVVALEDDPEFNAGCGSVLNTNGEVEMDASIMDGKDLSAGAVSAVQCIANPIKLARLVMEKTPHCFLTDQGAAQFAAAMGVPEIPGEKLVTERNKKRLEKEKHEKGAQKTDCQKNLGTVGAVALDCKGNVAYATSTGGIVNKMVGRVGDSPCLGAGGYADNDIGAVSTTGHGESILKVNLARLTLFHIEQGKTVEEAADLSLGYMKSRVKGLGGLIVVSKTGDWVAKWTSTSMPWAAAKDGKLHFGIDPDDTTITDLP

B1 (UGT1A9)
Km (COc1cc(-c2oc3cc(O)ccc3c(=O)c2O)ccc1O; pH 7.4, 37 °C): 1.47 µM

B2 (HCT R356D)
kcat/Km (NCCc1ccc(O)c(O)c1; pH 8, pseudo-first-order, with: p-coumaroyl CoA): 29.1 ± 1.4 M⁻¹ s⁻¹

B3 (putA D779Y)
kcat/Km (O=C(O)[C@@H]1CCC=N1; pH 7.5, 23 °C): 100 ± 16 M⁻¹ s⁻¹

B4 (enzyme)
kcat/Km (O=C(O)Cc1c[nH]c2ccccc12; pH 8.6, 25 °C): 19100 M⁻¹ s⁻¹

B5 (MMP2)
kcat/Km (CC(=O)NCC(=O)N1CCC[C@H]1C(=O)N[C@@H](CC(C)C)C(=O)NCC(=O)N[C@@H](CC(C)C)C(=O)N[C@@H](CO)C(=O)N[C@@H](CC(C)C)C(=O)NCC(=O)N[C@@H](CCCCN)C(N)=O): 98000 M⁻¹ s⁻¹

B6 (protein)
kcat/Km (C=CC[C@@H](O)CC(=O)SCCNC(=O)CCNC(=O)[C@H](O)C(C)(C)COP(=O)(O)OP(=O)(O)OC[C@H]1O[C@@H](n2cnc3c(N)ncnc32)[C@H](O)[C@@H]1OP(=O)(O)O; pH 7.8, 30 °C): 254000 M⁻¹ s⁻¹

B7 (alanine racemase H166A)
kcat/Km (C[C@@H](N)C(=O)O; pH 9, room temperature, with: NAD+ 10 mM): 2200 M⁻¹ s⁻¹

B8 (SUOX R529M/Y400N)
kcat/Km (O=[N+]([O-])O; pH 7, 25 °C, with: dithionite-reduced methyl viologen): 34000 M⁻¹ s⁻¹

ASRGL1 (Homo sapiens, UniProt Q7L266)
kcat/Km (COC(=O)[C@H](Cc1ccccc1)NC(=O)C[C@H](N)C(=O)O; pH 7.4, 37 °C, NaCl 100 mM): 2000 ± 300 M⁻¹ s⁻¹

B9 (putA G1011P)
kcat/Km (O=C(O)[C@@H]1CCCN1; pH 8, 23 °C): 2200 ± 840 M⁻¹ s⁻¹
